Measurements of several laboratories.
Numbered parts are unrelated; each lists some results of a single study. Changes are numbered by the printed parent chain.

Set 1
Target: UBE2L3 UBC core domain (UniProt P68036)
Chain of UniProt P68036 (whole entry, looked up): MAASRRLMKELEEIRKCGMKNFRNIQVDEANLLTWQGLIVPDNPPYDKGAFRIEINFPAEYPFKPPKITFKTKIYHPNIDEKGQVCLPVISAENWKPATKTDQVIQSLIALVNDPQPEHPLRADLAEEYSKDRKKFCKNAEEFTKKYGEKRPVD
Method: yeast two-hybrid
Sample: yeast
Setting: mostly zero background
Baseline: not given
Reading: higher = stronger interaction
B1: SYTL4 RING domain (UniProt Q96C24); chain RGSQHYSDRTCARCQESLGRLSPKTNTCRGCNHLVCRDCRIQESNGTWRCKVCAKEIELKKAT
B2: SH3RF1 RING domain (UniProt Q7Z6J0); chain DESALLDLLECPVCLERLDASAKVLPCQHTFCKRCLLGIVGSRNELRCPECRTLVGSGVEEL
B3: MDM4 RING domain (UniProt O15151); chain MEDCQNLLKPCSLCEKRPRDGNIIHGRTGHLVTCFHCARRLKKAGASCPICKKEIQLVIKVF
B4: TRIM62 RING domain (UniProt Q9BVG3); chain MACSLKDELLCSICLSIYQDPVSLGCEHYFCRRCITEHWVRQEAQGARDCPECRRTFAEPALAP
`B1 (SYTL4 RING domain)`: “lacZ reporter activity” 0.
`KETIKKTTKPCPRCHVPVEKNGGCMHMKCPQPQCRLEWCWNCGCEWNRVCMG (PRKN RING domain (UniProt O60260))`: “lacZ reporter activity” 0.
`NLSELTPYILCSICKGYLIDATTITECLHTFCKSCIVRHFYYSNRCPKCNIVVHQTQPLY (PCGF6 RING domain (UniProt Q9BYE7))`: “lacZ reporter activity” 0.
Under “lacZ reporter activity”, `B2 (SH3RF1 RING domain)` is recorded as 0.
`B3 (MDM4 RING domain)` — result for “lacZ reporter activity”: 0.
`PEDRESLKSACVVCLSSFKSCVFLECGHVCSCTECYRALPEPKKCPICRQAITRVIPLY (MUL1 RING domain (UniProt Q969V5))` — result for “lacZ reporter activity”: 0.
`YQNEVDDDLVCHICLQPLLQPLDTPCGHTFCYKCLRNFLQEKDFCPLDRKRLHFKLCKK (LNX2 RING domain (UniProt Q8N448))` — result for “lacZ reporter activity”: 0.
`B4 (TRIM62 RING domain)`: “lacZ reporter activity” 0.
`GSDDEEIPFKCFICRQSFQNPVVTKCRHYFCESCALQHFRTTPRCYVCDQQTNGVFNPA (RNF113A RING domain (UniProt O15541))` — result for “lacZ reporter activity”: 0.

Set 2
Target: RING finger protein unkempt homolog, zinc fingers 1-6, SBP tag (UNK, Homo sapiens, UniProt Q9C0B0, residues 30-357)
Chain of UniProt Q9C0B0 (30-357, looked up): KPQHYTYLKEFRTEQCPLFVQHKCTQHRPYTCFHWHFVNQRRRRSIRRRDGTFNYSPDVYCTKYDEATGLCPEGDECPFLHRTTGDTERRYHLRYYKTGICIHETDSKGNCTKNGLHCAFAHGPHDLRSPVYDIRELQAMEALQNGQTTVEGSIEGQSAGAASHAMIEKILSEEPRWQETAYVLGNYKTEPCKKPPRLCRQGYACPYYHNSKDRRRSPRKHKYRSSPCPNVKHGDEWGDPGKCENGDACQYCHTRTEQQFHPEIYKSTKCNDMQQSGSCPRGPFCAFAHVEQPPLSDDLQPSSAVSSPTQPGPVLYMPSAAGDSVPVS
Method: RNA Bind-n-Seq
Form: RNA
Sample: in vitro
Concentration: 100 nM
Setting: RNA with constant flanks, vertebrate orthologous sites, ends assumed
Baseline: input RNA pool
Reading: higher = stronger binding
Shared flanks, not repeated: GGGAGUUCUACAGUCCGACGAUC … CAACAGAGGAUUGAGCAUCA
`GUCCCUCAGUGACAGUGUGCCCUCUGUCGCCGACUCCCACUCCAGCCACUUCUCCGAGUUCAGCUGCUCGGACUUAGAAAGCAUGAGAACAUCGUGCAGUCACGGCUCCAGUGAUUGUCA` gave a bound/input enrichment of 0.564 ratio.
The bound/input enrichment of `UUACAGUCAUUGAUGGACUCUAUUUUUUUAUUAUUACUUGGACCUUGGUCGUUUUUAUACUAGCAAAAUGUCUUGUUUUAAUUUGUGUUUUUUGGGGGGGAGGGAGUGAACUUGCUGAUU` is reported as 2.13 ratio.
The bound/input enrichment of `UGAGCAUACAUAUACAAUGUGUAUCAAAUGCUGGUUGUAAAAUUAAACCAUCAUCUAGAAUAGAGUUAAUUUGUUAUAAUCAAGCUACAAAUAGGUUUUCUUAAACCAGAGAUGCACUGC` is reported as 0.514 ratio.
With `GACCUCCUGAACCUCUAGCUUUCAAGCUGUGGCUGUUUUAGCUACCGGUUUUAUUUUCUUUAUAGUUUUUCCCUGUUUCCCGCCUUCUCUUCCCUGUUCCCAAGGUUUGACUCAUGGAUU` the bound/input enrichment was 3.92 ratio.
`CUGUUUUGUGAAACAUGUCUACCCAGAAAAGUAACAUUCUAUAAAUACUAUUAAACAACUUAGCUAUGUUAUUUUUAAGUAUUAAAUUAUAUGUCAGUUAAAGUGAAUUUCAGAGUAAAA` gave a bound/input enrichment of 0.577 ratio.
`GCCACUGUAAUCUCCAUUUAUUUUUAUUUACCUAACUUUAUUAGAUUAUUCACUCCAGAAUGCCAUUUUUUGAUGGAACUGCUAUUUGACAGUUCUUAACUAAUUCCUCAUAAAGAAAUU` gave a bound/input enrichment of 4.84 ratio.
`GCAAUGAAAAAACAGCCCUCCUCCCAGCCCCCAUUUCACUAGGAGAUGCAAACAUUACCAUAGAAGAGCAAUUUAACUCAAUAAAUUUAUCUUUUCAGGAUGAUCCAGACUCCAGUACCA` gave a bound/input enrichment of 0.779 ratio.
The bound/input enrichment of `AUGCACAUGCGCUGUCACCAAAAACAAACCACACCUCUCAAACUUCAUUCAGAGCUGUUCUAGUGUUUCCCAUUCCCCACCCUUCCCACUGCCUUCGAUGAUCAAGUAUCCUCAGUUCUC` is reported as 1.4 ratio.
With `GGAGAGCUGAUAGAGUAGGGUCCUGUUCUCCUUAGAACGUUCUUUCUCUGUUUUGUCUUCCUCAGGGUGGGGUAGGGGUUGUGGUGCACCCUAGCCCUGAGGCGUGAGCAUUUGUGGUUC` the bound/input enrichment was 0.721 ratio.
For `GUAAUGCAUUUUGCGACUUGGAUGUGGUCUGCACGGGAAGCUGCUGGCCCCUCCACAACACAUACAAUUUUUGUCUUUUUUUUAAGAAAUUAAAACUGAAUUAAUUUACUAAAACUGUAA`, the bound/input enrichment was 0.253 ratio.

Set 3
Target: ABI1, truncated, D143A, DHFR fusion (Arabidopsis thaliana)
Method: DHFR PCA, deep sequencing
Sample: yeast
Setting: methotrexate growth selection, single substitutions
Added: (+)-ABA 200 µM
Baseline: wild-type fitted maximum
Reading: higher = stronger binding
Starting sequence: PYL1, truncated, DHFR fusion (Arabidopsis thaliana); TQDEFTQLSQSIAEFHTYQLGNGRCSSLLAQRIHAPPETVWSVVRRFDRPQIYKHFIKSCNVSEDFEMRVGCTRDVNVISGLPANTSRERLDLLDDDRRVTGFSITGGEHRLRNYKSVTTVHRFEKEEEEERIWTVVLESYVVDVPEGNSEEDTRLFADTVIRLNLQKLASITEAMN; partner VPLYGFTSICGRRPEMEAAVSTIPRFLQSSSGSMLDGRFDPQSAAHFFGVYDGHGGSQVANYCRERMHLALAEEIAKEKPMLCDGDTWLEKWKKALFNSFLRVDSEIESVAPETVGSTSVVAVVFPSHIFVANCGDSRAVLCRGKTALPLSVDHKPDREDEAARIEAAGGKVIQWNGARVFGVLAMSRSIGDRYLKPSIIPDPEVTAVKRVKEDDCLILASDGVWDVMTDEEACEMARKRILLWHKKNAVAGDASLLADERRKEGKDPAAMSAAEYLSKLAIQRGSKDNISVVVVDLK
`T173E` — result for “relative binding score”: 8.36%.
`I57Y` — result for “relative binding score”: 42.2%.
For `Q51D`, “relative binding score” read 89.8%.
Under “relative binding score”, `E152I` is recorded as 90.7%.
`N22M`: “relative binding score” 97.8%.
`V136F`: “relative binding score” 90.5%.
Under “relative binding score”, `R98F` is recorded as 83.3%.
`T106H`: “relative binding score” 83.6%.
For `S27R`, “relative binding score” read 81.8%.
Under “relative binding score”, `L164F` is recorded as 95.4%.

Set 4
Target: CCNF, cyclin fold, Cln2 fusion (human)
Method: yeast growth competition, sequencing
Sample: yeast
Setting: strong parent motif
Baseline: not given
Reading: higher = stronger binding
Starting sequence: RBL2 docking peptide (human); STTRRRLFVENDS
`L7T` — result for “normalised enrichment score”: 0.706.
Under “normalised enrichment score”, `T3S` is recorded as 4.24.
`T3M`: “normalised enrichment score” 4.12.
`N11T`: “normalised enrichment score” 8.3.
Under “normalised enrichment score”, `S13H` is recorded as 8.87.
For `R6M`, “normalised enrichment score” read 6.12.
`R5Y`: “normalised enrichment score” 0.771.
`S1A` — result for “normalised enrichment score”: 7.07.
`R4N`: “normalised enrichment score” 6.02.
`E10L` — result for “normalised enrichment score”: 7.03.
`E10T`: “normalised enrichment score” 7.13.
For `R5T`, “normalised enrichment score” read 2.07.
`T2K` — result for “normalised enrichment score”: 11.2.
For `R5C`, “normalised enrichment score” read 1.42.
Under “normalised enrichment score”, `S13E` is recorded as 8.41.

Set 5
Target: Sal-like protein 4, full length isoform A (SALL4, Homo sapiens, UniProt Q9UJQ4, residues 1-1053)
Chain of UniProt Q9UJQ4 (whole entry, looked up): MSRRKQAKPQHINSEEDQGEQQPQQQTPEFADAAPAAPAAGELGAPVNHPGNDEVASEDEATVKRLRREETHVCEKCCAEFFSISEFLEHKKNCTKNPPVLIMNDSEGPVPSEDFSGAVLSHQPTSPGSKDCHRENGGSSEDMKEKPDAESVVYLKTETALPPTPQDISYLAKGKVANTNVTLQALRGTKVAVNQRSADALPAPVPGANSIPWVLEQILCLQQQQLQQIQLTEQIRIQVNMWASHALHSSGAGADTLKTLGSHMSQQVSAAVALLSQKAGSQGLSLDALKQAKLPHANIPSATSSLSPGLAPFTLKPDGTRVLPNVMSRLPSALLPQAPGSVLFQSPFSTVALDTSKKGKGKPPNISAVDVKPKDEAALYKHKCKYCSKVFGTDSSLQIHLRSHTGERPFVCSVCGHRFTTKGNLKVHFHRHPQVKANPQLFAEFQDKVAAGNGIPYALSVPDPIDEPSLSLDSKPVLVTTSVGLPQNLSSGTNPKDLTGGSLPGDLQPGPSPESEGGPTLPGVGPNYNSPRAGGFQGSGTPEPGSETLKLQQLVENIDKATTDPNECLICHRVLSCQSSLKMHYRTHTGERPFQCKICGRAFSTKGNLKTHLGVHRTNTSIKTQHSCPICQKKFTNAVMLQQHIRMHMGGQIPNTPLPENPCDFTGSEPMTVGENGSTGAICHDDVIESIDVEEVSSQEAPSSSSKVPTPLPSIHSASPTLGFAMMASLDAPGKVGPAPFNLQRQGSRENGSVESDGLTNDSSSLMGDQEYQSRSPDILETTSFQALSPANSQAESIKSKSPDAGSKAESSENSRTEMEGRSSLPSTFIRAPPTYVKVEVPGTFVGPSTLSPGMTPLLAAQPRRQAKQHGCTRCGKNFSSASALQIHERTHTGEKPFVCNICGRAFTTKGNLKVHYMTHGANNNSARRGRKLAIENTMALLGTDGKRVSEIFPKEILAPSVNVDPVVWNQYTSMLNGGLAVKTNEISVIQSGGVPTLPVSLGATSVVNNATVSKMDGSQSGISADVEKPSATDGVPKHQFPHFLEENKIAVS
Method: universal PBM
Form: double-stranded DNA, one strand shown
Sample: in vitro
Concentration: 600 nM
Setting: 8-mer, flanks averaged, mean of replicates
Reading: higher = stronger binding
`CCTTCGAG` gave an E-score of -0.317.
The E-score of `GGTCGTAC` is reported as -0.239.
The E-score of `ACCCACTA` is reported as -0.0129.
`TAACCTCA` has an E-score of 0.136.
`GCGGCACA` gave an E-score of -0.169.
The E-score of `AGGACATC` is reported as -0.128.
With `ATGCCCGC` the E-score was -0.244.
With `CTTATAGA` the E-score was 0.257.
`AGTACCCG` has an E-score of -0.158.
`ATCGAGCA` gave an E-score of -0.0699.
`GGACTATA` has an E-score of 0.177.
For `AACCTTTG`, the E-score was 0.095.
For `AGCACGCG`, the E-score was -0.111.
`GCGGAAAA` gave an E-score of 0.156.
With `AAGCTGTG` the E-score was -0.0127.
The E-score of `AGCCCAGC` is reported as -0.362.
`ATAGGACA` gave an E-score of -0.0273.
`ATCAGCAG` gave an E-score of 0.0185.
With `CTTGAAGA` the E-score was 0.143.
With `AGCGAATA` the E-score was 0.177.
`GTTCATGA` gave an E-score of 0.0402.
For `CATCCATC`, the E-score was -0.087.
`CTGATGCA` has an E-score of -0.0067.

Set 6
Target: RNA binding protein fox-1 homolog 2, RRM domain, GST-SBP tag (RBFOX2, Homo sapiens, UniProt O43251-10, residues 100-194)
Method: RNA Bind-n-Seq
Form: RNA
Sample: in vitro
Concentration: 365 nM
Setting: natural RNA segment, single round, ends assumed
Baseline: no-protein control
Reading: higher = stronger binding
Shared flanks, not repeated: GGGAGUUCUACAGUCCGACGAUC … UGGAAUUCUCGGGUGCCAA
`UCCUGCUCUCAAGUGAAAUGAGUUAUAUGAGAUAUAUAUAUAUAUAUUUGGUCUUAACUGGAUUUUAAAGAGUUUGGCGUAUUAGUAGCAUUUAAAGCCAGAUAGGGCAC` — result for “RBNS enrichment (R)”: 1.13.
For `UCUGGCUUUGAGUUUGCUUGUGGAAUUUCCUGGGCAGUUGUGUUAAAUCCGCCAGGUCACGUGCAGACAAAGCUGUGGCUGCGAGAGUUGGCUGGCCUCUUGGACCAGAA`, “RBNS enrichment (R)” read 0.392.
Under “RBNS enrichment (R)”, `UCUCCUCCCUUUCAGCAUCCUUUGGGGAACCUCCAGCCCAAGGCACUGUUAGGCUUGGGCAUUAGCCUGGCCCAAGAGAUGCCACUGGGGACUAGAGGACAGAAGGGGAC` is recorded as 0.529.
`CUCAUCAAAACUAAAGACAGCAAAAGGCUUGUCAGUGAUCUAAGGGUUUGUGAGCUCUCUGCUCUGUUUUUGCUGUUUACUGGACUUUGGUUUCUUUCAUAACCCAUUUC` — result for “RBNS enrichment (R)”: 1.07.
For `CCACCGUCCCACUCGGUGACCCCAGGCCCCUCCGGCGCGGGAUGGCGCCCCAGGUCUCCCCUACUCCGCUCACCCCGCAGUUAAUGGCAAACGAAUAAAUAAAUGAGGCG`, “RBNS enrichment (R)” read 0.41.
`GAGACCCAGCCGCUGACAGUCCCUGGGGCUUGCCUUCUUUGCCAAGCCAAUGGGAAACCAAAAGGAGCUCACUUCCUGUUCUUCCUAGCUCCCCUCCCUGCCGCUGUGCU` — result for “RBNS enrichment (R)”: 0.363.
`ACACACGCUCGCACAGUGUUCUGAGGAAGGAACCUUCGCCACAGACUCCUGUACUAUUAACAAUCUGUAACCAAGCUAACUGUCUCAUCCAUGUGUUGAUUUCCUGUUUC`: “RBNS enrichment (R)” 0.801.
For `GCACCAGCUACCUCUGCAGACUCCCAGUGACUCUCUCUUCACAAGCAGAUGAAGGGAAGGCUCAGAAGGGCAUCUCCUGUAGCUCCUGGCAGCUGGUUCUGGUGGCACUG`, “RBNS enrichment (R)” read 1.02.
`GGGAAGCUGGCCCGGCUGACUGGAGAAUGGGAACCCCAGGACUCUCCACUCAUCUCGAAGGGUUGUGGUCCCCCCAGGAAAGUCUCGAGACAAUGGGGACAUUGUUGGUA` — result for “RBNS enrichment (R)”: 0.63.
`UCUGCUGAACCAUUUUUCUUAGGAUGCAGCCGUCUCACUCCCUUGUCCUGUAAAUCGUGUAUUCAUGUUGAUGAUUCUUGGAGAUAGGUUUCACUUUUUCCCAGCUGCGU`: “RBNS enrichment (R)” 0.607.
Under “RBNS enrichment (R)”, `UUUUCCUUGAUUUCUCAGUAGGUGCUAGAGUCCGUUCACACCCUUCACUGUGCGCGCAGACACUGAGGCACGUGGGCUCUGGAACCCGCAGGGUUUGCAGAGAGGCGGCA` is recorded as 0.601.
`GCCUGAUUUAAAAAGAAAAAAAAAAUUCCUUAAGCCAAAUGGUGUUCCAAGUUGGUUGCUGUGACAACCUCCAGGAAGAGCCACUUGUUACCCUCUAUUCUUUCUAGUGC`: “RBNS enrichment (R)” 0.55.
